Experimental data gathered from unrelated publications.
Compare with care: the assays were run in different laboratories. Numbers after ± are the reported error.
APP: Amyloid-beta precursor protein (APP, Homo sapiens, UniProt P05067)
ADRA2A: Alpha-2A adrenergic receptor (ADRA2A, Homo sapiens, UniProt P08913)
Tubulin alpha-1B chain/TUBB2B: Tubulin alpha-1B chain/TUBB2B (Bos taurus, UniProt P81947+Q6B856)
HDAC2: Histone deacetylase 2 (HDAC2, Homo sapiens, UniProt Q92769)
VIM-2: Metallo-beta-lactamase VIM-2 (VIM-2, Escherichia coli, UniProt Q5U7L7)
DIO2: Type II iodothyronine deiodinase (DIO2, Homo sapiens, UniProt Q92813)

Substance | target | assay | system | conditions | how to read | inhibition
CS(=O)(=O)c1ccc2nc(NC(=O)CCN3CCN(c4ncccn4)CC3)sc2c1 | APP | amyloid aggregation, inhibitor, fluorescence |  | 50 µM |  | 53.7%
Cc1ccc(Nc2ccc3c(c2)C(c2ccccc2F)=NC(C)C(=O)N3)cc1 (stereo not drawn) | ADRA2A | ligand displacement, radioligand |  | 10 µM |  | 66%
CS(=O)(=O)c1ccc2nc(NC(=O)CCN3CCN(C(c4ccccc4)c4ccccc4)CC3)sc2c1 | APP | amyloid aggregation, inhibitor, fluorescence |  | 50 µM |  | 52.2%
CC1N=C(c2ccccc2F)c2cc(Nc3ccc(Cl)cc3)ccc2NC1=O (stereo not drawn) | ADRA2A | ligand displacement, radioligand |  | 10 µM |  | 78%
COc1ccc(C[C@H]2NC(=O)/C=C/C[C@@H]([C@H](C)[C@H]3O[C@@H]3c3ccccc3)OC(=O)[C@H](CC(C)C)OC(=O)[C@H](C)CNC2=O)cc1Cl | Tubulin alpha-1B chain/TUBB2B | [3H]DZA binding |  | 30 µM, 1.5 h preincubation, pH 6.9, with: [3H]DZA 4.0 µM |  | 59 ± 4%
CC1N=C(c2ccccc2F)c2cc(Nc3ccc(S(C)(=O)=O)cc3)ccc2NC1=O (stereo not drawn) | ADRA2A | ligand displacement, radioligand |  | 10 µM |  | 10%
Cc1cc(=O)c(O)c(C(=O)O)o1 | Metallo-beta-lactamase type 2 (blaNDM-1, Klebsiella pneumoniae, UniProt C7C422) |  |  | 200 µM |  | 12%
CPLEMSHKKSFFDKK | human REV1 (826-1251) and Polκ (1-615) | REV1-Polκ binding, GST pull-down | peptide | up to 100 µM, 4 °C |  | no inhibition
CC1N=C(c2ccccc2F)c2cc(Nc3ccccc3F)ccc2NC1=O (stereo not drawn) | ADRA2A | ligand displacement, radioligand |  | 10 µM |  | 63%
CN(C)C/C=C/C(=O)Nc1cccc(C(=O)Nc2ccc(Nc3nccc(-c4cccnc4)n3)cc2)c1 | Mitogen-activated protein kinase 14 (MAPK14, Homo sapiens, UniProt Q16539) |  | A-375 | 1 µM |  | 16.4%
O=C(Nc1ccccc1)c1coc(-c2ccccc2O)n1 | HDAC2 | enzyme activity, inhibitor |  | 20 µM |  | 30%
CS(=O)(=O)c1ccc2nc(NC(=O)CCN3CCN(C(=O)OCc4ccccc4)CC3)sc2c1 | APP | amyloid aggregation, inhibitor, fluorescence |  | 50 µM |  | 52.4%
CC1N=C(c2ccccc2F)c2cc(Nc3cccc(C#N)c3)ccc2NC1=O (stereo not drawn) | ADRA2A | ligand displacement, radioligand |  | 10 µM |  | < 50%
CS(=O)(=O)c1ccc2nc(NC(=O)CCN3CCN(c4ccc(F)cc4)CC3)sc2c1 | APP | amyloid aggregation, inhibitor, fluorescence |  | 50 µM |  | 55.5%
O=C(NC(C(=O)O)c1ccccc1)c1ccc(=O)n(O)c1 (stereo not drawn) | VIM-2 | enzyme activity, inhibitor |  | 50 µM |  | 12%
O=C(NCc1ccc(-c2ccccc2)cc1)c1coc(-c2ccccc2O)n1 | HDAC2 | enzyme activity, inhibitor |  | 20 µM |  | ≥ 50%
CCc1ccccc1Nc1ccc2c(c1)C(c1ccccc1F)=NC(C)C(=O)N2 (stereo not drawn) | ADRA2A | ligand displacement, radioligand |  | 10 µM |  | 4%
CS(=O)(=O)c1ccc2nc(NC(=O)CCN3CCN(c4ccccn4)CC3)sc2c1 | APP | amyloid aggregation, inhibitor, fluorescence |  | 50 µM |  | 53.3%

Substance | target | assay | system | conditions | how to read | inhibition
C[C@]1(Cn2ccnn2)[C@H](C(=O)O)N2C(=O)C[C@H]2S1(=O)=O | VIM-2 | enzyme activity, inhibitor |  | 50 µM |  | ≤ 25%
Cc1ccc2c(c1)CCN(C(=O)[C@@H](NC(=O)[C@H](CCCC(=O)O)NC(=O)[C@@H]1Cc3ccccc3N1)C(C)C)[C@@H]2C(=O)N[C@H](C#N)CC(=O)O | Caspase-2 (Homo sapiens, UniProt P42575) | enzyme activity, inhibitor |  | 10 µM |  | 96%
CC12CC3CC1(C)C1(C)CC3(N)CC21C.Cl | Glutamate NMDA receptor; Grin1/Grin2a (Grin1/Grin2a, Rattus norvegicus, UniProt P35439+Q00959) | NMDA-evoked current, channel blocker, whole-cell patch clamp | tsA201 cells | 10 µM, holding potential -60 mV, with: 100 µM NMDA plus 10 µM glycine |  | 82.5 ± 3.2%
C=C(Cl)/C=C/[C@@H](O)C(C)C(=C)C[C@H]1O[C@@H]2[C@H](C)[C@@H](OC(=O)C[C@H]3C[C@H](OC(C)=O)C[C@@]4(C[C@@](C)(O)C[C@H](CC(=C)[C@@H](C)[C@H](OC(C)=O)[C@H](C)C(=O)C[C@@H]5C[C@H](OC)C[C@@]6(C[C@@H](O)C[C@H](/C=C\CCC[C@H]7O[C@](O)(C[C@H](O)[C@H]7C)[C@H]2O)C6)O5)O4)O3)[C@@H]1O (stereo partly drawn) | Tubulin alpha-1B chain/TUBB2B | [3H]DZA binding |  | 30 µM, 1.5 h preincubation, pH 6.9, with: [3H]DZA 4.0 µM |  | 21 ± 7%
Cc1cc(CC2(Cc3ccnc(C)c3)c3ccccc3C(=O)c3ccccc32)ccn1 | Voltage-gated potassium channel, KQT; KCNQ2(Kv7.2)/KCNQ3(Kv7.3) (KCNQ3/KCNQ2, Homo sapiens, UniProt O43525+O43526) | potassium current, inhibitor, manual patch clamp | tsA201 (transfected) | 1.5 µM |  | inhibited
Cl.Cl.Fc1ccc(C(OCCN2CCN(CCCc3ccccc3)CC2)c2ccc(F)cc2)cc1 | Sodium channel protein type 10 subunit alpha (SCN10A, Homo sapiens, UniProt Q9Y5Y9) | sodium influx, inhibitor, FLIPR | HEK293 | 10 µM, with: deltamethrin 10 µM |  | 87%
CS(=O)(=O)c1ccc2nc(NC(=O)CCN3CCN(Cc4ccccc4)CC3)sc2c1 | APP | amyloid aggregation, inhibitor, fluorescence |  | 50 µM |  | 53.4%
O=C(N[C@@H](Cn1ccnc1)c1c(F)cc(-c2ccc(F)cc2)cc1F)c1ccc(-c2nnc(-c3ccccc3)o2)cc1 | Putative lanosterol 14-alpha-demethylase (Leishmania infantum, UniProt A2TEF2) | enzyme activity, inhibitor |  | equimolar to enzyme, 1 h, Leishmania infantum CYP51, with: obtusifoliol 50 µM |  | inhibited
CONCc1cc(O)c(O)cc1O.Cl | 1-deoxy-D-xylulose-5-phosphate synthase (dxs, Escherichia coli, UniProt P77488) | inhibitor |  |  | inactive up to value | > 75 µM
Brc1ccc(Oc2cc(Br)c(Br)cc2Br)c(Br)c1 | DIO2 |  | H4 glioma | 500 nM, 6 h, with: 10 µM MG132 + 100 µM cycloheximide | relative to: MG132 + cycloheximide | 14.9 ± 5.3%
CC1N=C(c2ccccc2F)c2cc(Nc3ccc([N+](=O)[O-])cc3)ccc2NC1=O (stereo not drawn) | ADRA2A | ligand displacement, radioligand |  | 10 µM |  | 52%
COc1cccc2c1C(=O)c1c(O)c3c(c(O)c1C2=O)C[C@@](O)(C(C)=O)C[C@@H]3O[C@H]1C[C@H](N)[C@H](O)[C@H](C)O1 | Organic cation/carnitine transporter 2 (SLC22A5, Homo sapiens, UniProt O76082) | transporter uptake, inhibitor |  | 1.5 mM |  | 66.4%
Oc1cc(Oc2cc(Br)c(Br)cc2Br)c(Br)cc1Br | DIO2 |  | H4 glioma | 500 nM, 6 h | relative to: untreated | 58.9 ± 1.6%
O=C(NCCCCNC(=S)NCCC(c1ccccc1)c1ccccc1)c1coc(-c2ccccc2O)n1 | HDAC2 | enzyme activity, inhibitor |  | 20 µM |  | 1%
CS(=O)(=O)c1ccc2nc(NC(=O)CCN3CCN(c4ccc(C(F)(F)F)cc4)CC3)sc2c1 | APP | amyloid aggregation, inhibitor, fluorescence |  | 50 µM |  | 53.4%
Cc1ccc(Nc2ccc3c(c2)C(c2ccccc2F)=NC(C)C(=O)N3)c(C)c1 (stereo not drawn) | ADRA2A | ligand displacement, radioligand |  | 10 µM |  | 31%
CS(=O)(=O)c1ccc2nc(NC(=O)CCN3CCN(C(=O)c4ccco4)CC3)sc2c1 | APP | amyloid aggregation, inhibitor, fluorescence |  | 50 µM |  | 54.5%
CCCCCCCCCCCCCCCc1cccc(O)c1C(=O)O | Histone acetyltransferase p300 (EP300, Homo sapiens, UniProt Q09472) | enzyme activity, inhibitor, radiometric |  | 200 µM |  | ≤ 35%

A few entries again:
Substance | target | assay | system | conditions | how to read | inhibition
CN(C)C/C=C/C(=O)Nc1cccc(C(=O)Nc2ccc(Nc3nccc(-c4cccnc4)n3)cc2)c1 | Mitogen-activated protein kinase 14 (MAPK14, Homo sapiens, UniProt Q16539) |  | A-375 | 1 µM |  | 16.4%
O=C(Nc1ccccc1)c1coc(-c2ccccc2O)n1 | HDAC2 | enzyme activity, inhibitor |  | 20 µM |  | 30%
CS(=O)(=O)c1ccc2nc(NC(=O)CCN3CCN(C(=O)OCc4ccccc4)CC3)sc2c1 | APP | amyloid aggregation, inhibitor, fluorescence |  | 50 µM |  | 52.4%
CC1N=C(c2ccccc2F)c2cc(Nc3cccc(C#N)c3)ccc2NC1=O (stereo not drawn) | ADRA2A | ligand displacement, radioligand |  | 10 µM |  | < 50%
CS(=O)(=O)c1ccc2nc(NC(=O)CCN3CCN(c4ccc(F)cc4)CC3)sc2c1 | APP | amyloid aggregation, inhibitor, fluorescence |  | 50 µM |  | 55.5%
O=C(NC(C(=O)O)c1ccccc1)c1ccc(=O)n(O)c1 (stereo not drawn) | VIM-2 | enzyme activity, inhibitor |  | 50 µM |  | 12%
